Literature values, collected from citations in different studies.
Values joined by “and” are separate records of one study, mostly repeats; a detail may differ. ± gives the spread as reported.
Organism: HIV-1

CN(C)c1ccc(Nc2c3ccc(NC(=O)CCN4CCCC4)cc3nc3cc(NC(=O)CCN4CCCC4)ccc23)cc1  IC50 (viral replication; TZM-bl, NL4-3): 3400 ± 140 nM
Cc1cc(/C=C/C#N)cc(C)c1Oc1cc(Nc2ccc(C#N)cc2)c(N)cc1[N+](=O)[O-]  EC50 (viral replication; TZM-bl, NL4-3 wild type): 0.38 ± 0.07 nM
COC(=O)N[C@H](C(=O)N[C@@H](Cc1ccccc1)[C@@H](O)CN(Cc1ccc(-c2ccccn2)cc1)NC(=O)[C@@H](NC(=O)OC)C(C)(C)C)C(C)(C)C  IC50 (viral replication; wild type, human serum): 0.011 µg/mL and ~0.011 µg/mL
Cc1cc(/C=C/C#N)cc(C)c1Nc1ccnc(Nc2ccc(C#N)cc2)n1  EC50 (viral replication; wild type): 0.51 nM
Cn1c(Cn2ccc(C(F)(F)F)c(Oc3cc(Cl)cc(C#N)c3)c2=O)n[nH]c1=O  EC50 (viral replication, single-round infection; wild type): 0.7 ± 0.1 nM
Cn1c(Cn2ccc(C(F)(F)F)c(Oc3cc(Cl)cc(C#N)c3)c2=O)n[nH]c1=O  EC50 (viral replication, MTT; MT-4, IIIB wild type): 8.46 ± 3.64 nM
C=C(C)[C@@H]1CC[C@]2(NCCN3CCS(=O)(=O)CC3)CC[C@]3(C)[C@H](CC[C@@H]4[C@@]5(C)CC=C(c6ccc(C(=O)O)cc6)C(C)(C)[C@@H]5CC[C@]43C)[C@@H]12  antiviral activity (viral replication; subtypes B, C, AE incl. Gag polymorphisms; concentration not given): active
Nc1ccn([C@@H]2CS[C@H](CO)O2)c(=O)n1  EC50 (X4 LAI.04, human tissue ex vivo): 16.6 nM
Cc1cc(C#N)cc(C)c1Oc1nc(Nc2ccc(C#N)cc2)nc(N)c1Br  EC50 (viral replication; wild type): 1.4 nM
Cc1cc(/C=C/C#N)cc(C)c1Nc1ccnc(Nc2ccc(C#N)cc2)n1  EC50 (viral replication; wild type): 0.51 nM
CN[C@@H]1[C@H](O[C@@H]2OC[C@@H](O)[C@H](O)[C@H]2O)[C@@H](O)[C@H](O[C@H]2c3cc(C)c(C(=O)N[C@H](C)C(=O)O)c(O)c3-c3c(cc4c(c3O)C(=O)c3cc(OC)cc(O)c3C4=O)[C@@H]2O)O[C@@H]1C  EC50 (viral cytopathicity; MT4 and CEM): ≥ 4200 nM
Cc1cc(/C=C/C#N)cc(C)c1Nc1ccnc(Nc2ccc(C#N)cc2)n1  EC50 (viral replication, MTT; MT-4, IIIB wild type): 1 ± 0.27 nM
Cc1cc(C#N)cc(C)c1Oc1nc(Nc2ccc(C#N)cc2)nc(N)c1Br  EC50 (viral replication; wild type): 1.5 nM
Cc1cc(/C=C/C#N)cc(C)c1Nc1ccnc(Nc2ccc(C#N)cc2)n1  EC50 (viral replication, single-round infection; wild type): 0.2 ± 0.1 nM

For quick reference, copied from above:
Nc1ccn([C@@H]2CS[C@H](CO)O2)c(=O)n1  EC50 (X4 LAI.04, human tissue ex vivo): 16.6 nM
